Measurements of several laboratories.
Numbered parts are unrelated; each lists some results of a single study.
UniProt P10721, sequence (whole entry, unmodified, looked up): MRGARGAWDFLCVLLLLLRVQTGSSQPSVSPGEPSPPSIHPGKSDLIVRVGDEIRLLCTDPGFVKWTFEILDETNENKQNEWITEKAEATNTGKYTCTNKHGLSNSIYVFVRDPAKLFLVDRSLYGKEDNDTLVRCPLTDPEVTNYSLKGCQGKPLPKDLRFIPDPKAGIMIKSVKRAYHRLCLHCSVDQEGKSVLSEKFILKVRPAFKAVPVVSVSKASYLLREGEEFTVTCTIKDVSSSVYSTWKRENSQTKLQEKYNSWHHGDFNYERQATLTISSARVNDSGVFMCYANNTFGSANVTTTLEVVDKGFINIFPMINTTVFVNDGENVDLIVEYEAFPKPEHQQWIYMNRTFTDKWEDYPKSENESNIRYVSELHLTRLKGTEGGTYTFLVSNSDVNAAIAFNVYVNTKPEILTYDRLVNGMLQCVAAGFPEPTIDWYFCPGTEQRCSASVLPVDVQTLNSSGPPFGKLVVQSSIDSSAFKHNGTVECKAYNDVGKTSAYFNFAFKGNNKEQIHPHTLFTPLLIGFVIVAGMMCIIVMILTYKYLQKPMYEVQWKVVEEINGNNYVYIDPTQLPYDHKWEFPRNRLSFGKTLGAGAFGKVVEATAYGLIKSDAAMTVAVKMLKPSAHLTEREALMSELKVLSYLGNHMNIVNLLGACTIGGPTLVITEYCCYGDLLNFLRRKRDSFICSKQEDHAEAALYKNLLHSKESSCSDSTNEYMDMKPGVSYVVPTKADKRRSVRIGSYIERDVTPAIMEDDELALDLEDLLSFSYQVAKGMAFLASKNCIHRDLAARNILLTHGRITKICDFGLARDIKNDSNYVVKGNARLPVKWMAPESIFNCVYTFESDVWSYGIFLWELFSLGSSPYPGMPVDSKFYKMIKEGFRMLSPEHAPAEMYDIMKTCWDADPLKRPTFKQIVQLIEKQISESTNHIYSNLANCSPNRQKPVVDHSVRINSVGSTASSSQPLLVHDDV
UniProt O75385, sequence (whole entry, looked up): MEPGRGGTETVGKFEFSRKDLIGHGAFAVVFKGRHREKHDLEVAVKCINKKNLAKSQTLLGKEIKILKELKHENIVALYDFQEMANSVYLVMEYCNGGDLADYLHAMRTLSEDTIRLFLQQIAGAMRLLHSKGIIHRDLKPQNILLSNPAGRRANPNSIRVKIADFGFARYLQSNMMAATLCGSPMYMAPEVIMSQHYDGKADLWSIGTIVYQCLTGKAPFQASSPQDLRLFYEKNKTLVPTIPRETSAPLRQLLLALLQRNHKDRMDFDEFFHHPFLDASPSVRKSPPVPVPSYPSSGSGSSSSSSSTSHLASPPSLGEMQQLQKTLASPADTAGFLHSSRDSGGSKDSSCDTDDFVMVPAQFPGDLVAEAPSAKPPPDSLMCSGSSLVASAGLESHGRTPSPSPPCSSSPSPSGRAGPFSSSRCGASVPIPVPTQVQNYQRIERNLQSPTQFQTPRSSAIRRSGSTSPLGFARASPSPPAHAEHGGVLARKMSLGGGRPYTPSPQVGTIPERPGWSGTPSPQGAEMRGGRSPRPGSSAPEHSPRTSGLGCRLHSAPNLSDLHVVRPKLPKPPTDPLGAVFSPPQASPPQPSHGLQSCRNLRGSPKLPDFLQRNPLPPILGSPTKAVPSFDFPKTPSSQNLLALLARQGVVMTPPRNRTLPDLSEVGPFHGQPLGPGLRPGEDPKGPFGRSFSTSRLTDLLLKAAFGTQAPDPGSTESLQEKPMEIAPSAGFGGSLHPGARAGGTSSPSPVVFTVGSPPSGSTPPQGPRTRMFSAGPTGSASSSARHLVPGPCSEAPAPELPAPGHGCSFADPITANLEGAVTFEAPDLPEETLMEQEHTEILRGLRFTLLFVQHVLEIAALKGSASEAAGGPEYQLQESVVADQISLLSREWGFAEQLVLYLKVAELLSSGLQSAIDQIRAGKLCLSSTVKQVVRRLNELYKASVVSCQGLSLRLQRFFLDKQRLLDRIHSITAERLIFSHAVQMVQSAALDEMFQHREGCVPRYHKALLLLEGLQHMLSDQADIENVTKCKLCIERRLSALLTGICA
UniProt Q15418, sequence (whole entry, looked up): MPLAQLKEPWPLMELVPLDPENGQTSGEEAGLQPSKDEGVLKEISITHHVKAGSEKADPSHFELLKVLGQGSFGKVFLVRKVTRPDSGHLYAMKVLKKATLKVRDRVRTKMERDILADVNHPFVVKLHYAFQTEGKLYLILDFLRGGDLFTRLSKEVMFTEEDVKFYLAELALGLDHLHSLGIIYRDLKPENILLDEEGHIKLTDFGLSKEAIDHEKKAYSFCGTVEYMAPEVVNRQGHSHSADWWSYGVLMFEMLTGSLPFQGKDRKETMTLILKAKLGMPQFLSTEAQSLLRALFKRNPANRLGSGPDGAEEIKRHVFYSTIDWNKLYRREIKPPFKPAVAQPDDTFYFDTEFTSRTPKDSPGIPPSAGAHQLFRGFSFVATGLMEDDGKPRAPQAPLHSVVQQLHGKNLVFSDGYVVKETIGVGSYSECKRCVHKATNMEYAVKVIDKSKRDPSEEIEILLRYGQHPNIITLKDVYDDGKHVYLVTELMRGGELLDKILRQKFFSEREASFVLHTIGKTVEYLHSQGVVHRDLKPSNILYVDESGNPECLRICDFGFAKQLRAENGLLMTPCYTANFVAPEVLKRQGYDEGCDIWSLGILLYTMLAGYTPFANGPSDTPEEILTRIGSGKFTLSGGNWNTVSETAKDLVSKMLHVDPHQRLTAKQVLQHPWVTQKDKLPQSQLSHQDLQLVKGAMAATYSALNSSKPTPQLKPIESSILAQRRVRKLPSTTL
UniProt P16591, sequence (whole entry, looked up): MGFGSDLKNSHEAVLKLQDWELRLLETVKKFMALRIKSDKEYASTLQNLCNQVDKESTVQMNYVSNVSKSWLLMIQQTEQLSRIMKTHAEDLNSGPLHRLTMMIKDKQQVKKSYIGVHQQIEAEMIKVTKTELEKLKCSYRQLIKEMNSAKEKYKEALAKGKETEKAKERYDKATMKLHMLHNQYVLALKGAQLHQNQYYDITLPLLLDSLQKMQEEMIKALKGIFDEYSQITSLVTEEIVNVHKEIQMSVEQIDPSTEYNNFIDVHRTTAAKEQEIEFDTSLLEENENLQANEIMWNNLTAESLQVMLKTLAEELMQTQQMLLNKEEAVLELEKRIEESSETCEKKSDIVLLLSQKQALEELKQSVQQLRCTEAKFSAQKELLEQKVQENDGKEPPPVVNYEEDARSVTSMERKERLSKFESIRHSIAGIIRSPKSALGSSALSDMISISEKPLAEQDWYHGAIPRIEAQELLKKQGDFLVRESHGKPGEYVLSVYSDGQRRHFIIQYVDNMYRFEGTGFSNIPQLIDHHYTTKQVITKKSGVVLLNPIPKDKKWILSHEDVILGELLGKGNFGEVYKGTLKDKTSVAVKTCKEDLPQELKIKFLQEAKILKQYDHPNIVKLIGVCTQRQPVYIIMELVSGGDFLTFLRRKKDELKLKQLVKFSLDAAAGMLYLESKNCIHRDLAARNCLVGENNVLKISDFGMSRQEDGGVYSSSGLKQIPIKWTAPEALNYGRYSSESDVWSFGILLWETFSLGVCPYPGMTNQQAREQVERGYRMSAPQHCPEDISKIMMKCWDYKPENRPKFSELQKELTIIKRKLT
UniProt Q9UPZ9, sequence (whole entry, looked up): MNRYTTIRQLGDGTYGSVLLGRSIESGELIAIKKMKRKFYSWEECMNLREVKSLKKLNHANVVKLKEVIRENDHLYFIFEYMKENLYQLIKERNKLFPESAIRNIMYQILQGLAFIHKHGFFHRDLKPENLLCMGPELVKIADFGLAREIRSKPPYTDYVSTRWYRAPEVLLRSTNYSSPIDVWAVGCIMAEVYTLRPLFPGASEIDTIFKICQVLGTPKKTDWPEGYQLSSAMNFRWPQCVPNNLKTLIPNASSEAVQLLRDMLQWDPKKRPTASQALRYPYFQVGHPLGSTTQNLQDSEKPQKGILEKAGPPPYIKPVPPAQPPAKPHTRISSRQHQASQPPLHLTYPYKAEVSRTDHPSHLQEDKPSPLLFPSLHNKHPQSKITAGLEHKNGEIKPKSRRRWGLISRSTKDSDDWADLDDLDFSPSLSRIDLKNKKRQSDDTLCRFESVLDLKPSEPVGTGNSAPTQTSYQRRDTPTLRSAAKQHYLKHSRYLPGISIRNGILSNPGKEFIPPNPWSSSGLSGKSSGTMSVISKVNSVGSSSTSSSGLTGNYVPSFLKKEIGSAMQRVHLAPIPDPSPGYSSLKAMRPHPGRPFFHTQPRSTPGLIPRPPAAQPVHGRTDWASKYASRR

Sample 1
Target: Megakaryocyte-associated tyrosine-protein kinase (MATK, Homo sapiens, UniProt P42679)
UniProt P42679, sequence (whole entry, looked up): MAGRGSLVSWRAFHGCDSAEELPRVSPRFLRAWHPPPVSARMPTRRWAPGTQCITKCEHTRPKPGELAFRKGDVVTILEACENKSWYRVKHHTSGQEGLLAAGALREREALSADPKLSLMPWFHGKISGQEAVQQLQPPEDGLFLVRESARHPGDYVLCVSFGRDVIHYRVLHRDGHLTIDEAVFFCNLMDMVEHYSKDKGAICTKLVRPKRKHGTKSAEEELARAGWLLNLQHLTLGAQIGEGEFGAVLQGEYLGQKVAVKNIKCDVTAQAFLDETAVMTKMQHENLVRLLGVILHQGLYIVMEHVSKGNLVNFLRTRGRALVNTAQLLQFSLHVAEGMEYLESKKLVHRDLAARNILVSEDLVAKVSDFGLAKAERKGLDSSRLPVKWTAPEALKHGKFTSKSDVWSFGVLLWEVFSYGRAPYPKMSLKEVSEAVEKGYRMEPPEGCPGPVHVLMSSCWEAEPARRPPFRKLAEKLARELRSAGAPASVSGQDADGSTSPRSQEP
Observed: enzyme activity
Action: inhibitor
Concentration: 0.5 µM
Relative to: control
Endpoint: remaining activity
COc1cc2c(Nc3ccc(Br)cc3F)ncnc2cc1OCC1CCN(C)CC1: 101%
O=C(O)/C=C/c1cc(Br)c(Br)c(Br)c1Br: 87.2%
CCCCc1c(-c2ccc(O)cc2)[nH]c2nccnc12: 109%
CNc1cc2c(Nc3cccc(Br)c3)ncnc2cn1: 88%
CC(C)n1cnc2c(Nc3cccc(Cl)c3)nc(NCCO)nc21: 93.3%
CC(C)(C)c1nc2c3cc[nH]c(=O)c3c3cc(F)ccc3c2[nH]1: 102%
FC(F)(F)c1ccc(/C=C/c2nc(COc3ccc(CCCCn4ccnn4)cc3)co2)cc1: 95%
N#C/C(=C(/N)SC1C=CC=CC1)c1cccc(C(O)c2ccncc2)c1 (stereo not drawn): 87.9%
COc1cc2c(N3CCN(C(=O)Nc4ccc(OC(C)C)cc4)CC3)ncnc2cc1OCCCN1CCCCC1: 79.4%
NC(=O)c1cccc(-c2cc(Nc3ccc(OC(F)(F)F)cc3)ncn2)c1: 100%
O=C1c2ccccc2-c2nc3nnnn3nc21: 99.7%
c1cc(-c2cnn3cc(-c4ccc(OCCN5CCCCC5)cc4)cnc23)ccn1: 104%
C[C@@H](N)[C@H]1CC[C@H](C(=O)Nc2ccncc2)CC1: 96%
O=C(c1ccccc1)c1ccc(N2CCOCC2)cc1O: 92.5%
Nc1nc(Nc2ccc(S(N)(=O)=O)cc2)nn1C(=S)Nc1c(F)cccc1F: 133%
O=C1NC(=O)/C(=C/c2ccc3c(c2)OC(F)(F)O3)S1: 93.2%
CC(C)N(CCC(=O)c1ccc2ccccc2c1)Cc1ccccc1: 80.7%
NC(=O)c1ccc(-c2nc(-c3ccc4c(c3)OCCO4)c(-c3ccccn3)[nH]2)cc1: 91.4%
CCN(CC)CCCCN1c2ccccc2Oc2ccc(Cl)cc21: 99.9%
O=c1c(-c2ccc(F)cc2)c(-c2ccncc2)[nH]n1-c1ccc(Cl)cc1: 86%
Clc1ccc(Nc2nnc(Cc3ccncc3)c3ccccc23)cc1: 78.1%

Sample 2
Species: mouse
Medium: microsomes or S9
Concentration: 2 µM
Time: 0.5 h
Endpoint: remaining compound
c1nc2nc[nH]c(N3CCN(Cc4ccc5c(c4)OCO5)CC3)c-2n1: 47.2%
Cc1n[nH]c(C)c1CCC(=O)NCc1c(F)cccc1F: 61.5%
c1ccc(C(CCNc2ncnc3[nH]cnc23)c2ccccc2)cc1: 17.2%
CCc1cc2c(cc3c(=O)n(CC(=O)NCC(C)c4ccccc4)nc(CC)n32)s1 (stereo not drawn): 0.0722%
CCOC(=O)Cc1c(C)[nH]c2c(-c3ccccc3)cnn2c1=O: 78.1%
CN(C)c1cccc2c(S(=O)(=O)NC(CC(=O)O)C(=O)O)cccc12 (stereo not drawn): 82.1%
CNC(=O)c1nnn2c1[nH]c(=O)c1c(C)c(C)sc12: 46.3%
Cc1[nH]c(=O)c2ccccc2c1C(=O)OC(C)(C)C: 92.4%
O=C(Nc1ccccc1OCc1cscn1)c1cc(Cl)c[nH]1: 0.175%
Cc1cc(C)c(S(=O)(=O)N(C)C2(C)CCS(=O)(=O)C2)c(C)c1 (stereo not drawn): 0.747%
O=C(Nc1ccc(-n2cnc3ccccc32)cc1)c1nc2ncccn2n1: 17.2%
COc1ccc(Nc2nc(NCCN3CCOCC3)nc(Nc3ccc(OC)cc3)n2)cc1: 16.6%
CCc1nc2n(n1)C1(CCCCC1)[C@@H]1CCCC[C@@H]1N2C(=O)CC(C)C: 0.154%
CCOc1cc(=O)n2c(c1C(=O)NCCCOC(C)C)CCCCC2: 47.2%

Sample 3
Cell line: Huh-7
Concentration: 10 µM
Time: 24 h
Endpoint: viability
CN(C)CCCOc1nn(Cc2ccccc2)c2ccccc12: 89.2%
NNc1nncc2ccccc12: 101%
Nc1ccc(S(=O)(=O)Nc2nccs2)cc1: 108%
CNCCCC1c2ccccc2C=Cc2ccccc21: 82.8%
O=C(O)c1cccnc1: 100%
C[C@@H]1C/C=C/C=C/C=C/C=C/[C@H](O[C@@H]2O[C@H](C)[C@@H](O)[C@H](N)[C@@H]2O)C[C@@H]2O[C@](O)(C[C@@H](O)C[C@H]3O[C@@H]3/C=C/C(=O)O1)C[C@H](O)[C@H]2C(=O)O: 101%
CCCN(CCC)C(=O)C(CCC(=O)O)NC(=O)c1ccccc1 (stereo not drawn): 102%
CC1(C)O[C@@H]2C[C@H]3[C@@H]4CCC5=CC(=O)C=C[C@]5(C)[C@H]4[C@@H](O)C[C@]3(C)[C@]2(C(=O)CO)O1: 89.3%
CN(C)c1ccc(C(=C2C=CC(=[N+](C)C)C=C2)c2ccc(N(C)C)cc2)cc1: 51.9%
CN(C)c1ccc(O)c2c1C[C@H]1C[C@H]3[C@H](N(C)C)C(O)=C(C(N)=O)C(=O)[C@@]3(O)C(O)=C1C2=O: 84.9%
CC[N+](CC)(CC(=O)Nc1c(C)cccc1C)Cc1ccccc1: 98%
NC(=O)c1ccc([N+](=O)[O-])cc1Cl: 97.2%
CC(C)C(=O)Nc1ccc([N+](=O)[O-])c(C(F)(F)F)c1: 99%
CC(C(=O)O)c1ccc(C(=O)c2cccs2)cc1 (stereo not drawn): 97.2%
O=C(O)CCC(=O)c1ccc(-c2ccccc2)cc1: 103%

Sample 4
SMILES: Cc1nc(N2CC[C@@H](O)C2)ncc1-c1cc(C(F)(F)F)cc2[nH]ncc12
Technique: competition with immobilised ligand
Concentration: 1 µM
Endpoint: remaining binding
Receptor tyrosine-protein kinase erbB-3 (ERBB3, Homo sapiens, UniProt P21860); binding: 100%
Calcium/calmodulin-dependent protein kinase kinase 2 (CAMKK2, Homo sapiens, UniProt Q96RR4); binding: 100%
Epidermal growth factor receptor (EGFR, Homo sapiens, UniProt P00533, L861Q); cell-free assay: 100%
Serine/threonine-protein kinase ICK (CILK1, Homo sapiens, UniProt Q9UPZ9); binding: 100%
Ribosomal protein S6 kinase alpha-1, C-terminal kinase domain (RPS6KA1, Homo sapiens, UniProt Q15418); binding: 91%
Tyrosine-protein kinase Fer (FER, Homo sapiens, UniProt P16591); binding: 97%
Tyrosine-protein kinase ABL1, phosphorylated (ABL1, Homo sapiens, UniProt P00519, H396P); binding: 61%
Serine/threonine-protein kinase ULK1 (ULK1, Homo sapiens, UniProt O75385); binding: 76%
Mast/stem cell growth factor receptor Kit (KIT, Homo sapiens, UniProt P10721, V559D/V654A); cell-free assay: 94%
Tyrosine-protein kinase Srms (SRMS, Homo sapiens, UniProt Q9H3Y6); cell-free assay: 81%
Megakaryocyte-associated tyrosine-protein kinase (MATK, Homo sapiens, UniProt P42679); binding: 86%
Dual specificity testis-specific protein kinase 1 (TESK1, Homo sapiens, UniProt Q15569); binding: 94%
Mast/stem cell growth factor receptor Kit (KIT, Homo sapiens, UniProt P10721, L576P); cell-free assay: 69%
Tyrosine-protein kinase JAK3, JH1 (JAK3, Homo sapiens, UniProt P52333); binding: 77%
Tyrosine-protein kinase ABL1, non-phosphorylated (ABL1, Homo sapiens, UniProt P00519, T315I); binding: 78%
Phosphatidylinositol 4,5-bisphosphate 3-kinase catalytic subunit alpha isoform (PIK3CA, Homo sapiens, UniProt P42336, H1047Y); cell-free assay: 99%

For quick reference, copied from above (sample 4):
Ribosomal protein S6 kinase alpha-1, C-terminal kinase domain (RPS6KA1, Homo sapiens, UniProt Q15418); binding: 91%
Tyrosine-protein kinase Fer (FER, Homo sapiens, UniProt P16591); binding: 97%
Tyrosine-protein kinase ABL1, phosphorylated (ABL1, Homo sapiens, UniProt P00519, H396P); binding: 61%
Serine/threonine-protein kinase ULK1 (ULK1, Homo sapiens, UniProt O75385); binding: 76%
